Results from different studies.
Numbered parts are unrelated; each lists some results of a single study. Changes are numbered by the printed parent chain.

Block 1 — method: DHFR PCA, deep sequencing; sample: yeast; together with: (+)-ABA 0.0091 µM; reference: wild-type fitted maximum; reading: higher = stronger binding; measurement: relative binding score
Target: ABI1, truncated, D143A, DHFR fusion (Arabidopsis thaliana)
Setting: methotrexate growth selection, single substitutions
Starting sequence: PYL1, truncated, DHFR fusion (Arabidopsis thaliana); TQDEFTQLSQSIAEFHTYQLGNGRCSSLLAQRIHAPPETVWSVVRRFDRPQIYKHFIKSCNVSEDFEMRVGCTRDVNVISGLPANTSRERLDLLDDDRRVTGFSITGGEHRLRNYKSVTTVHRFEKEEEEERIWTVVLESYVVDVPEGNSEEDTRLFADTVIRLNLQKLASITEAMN; partner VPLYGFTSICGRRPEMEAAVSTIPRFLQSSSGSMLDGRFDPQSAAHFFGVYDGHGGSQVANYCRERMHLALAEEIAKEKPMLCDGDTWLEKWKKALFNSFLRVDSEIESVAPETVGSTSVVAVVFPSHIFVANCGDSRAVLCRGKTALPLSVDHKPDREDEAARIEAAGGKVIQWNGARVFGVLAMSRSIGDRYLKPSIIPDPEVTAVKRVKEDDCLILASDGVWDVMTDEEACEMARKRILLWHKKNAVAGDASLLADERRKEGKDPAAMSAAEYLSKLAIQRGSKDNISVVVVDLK
Q19W: 3.59%
R123H: 35.9%
T135L: -9.43%
W134G: 13.3%
G21E: 41.9%
F66T: 1.08%
Q31I: 1.68%
S11H: 14.1%
E109W: -3.09%
D65E: 11.1%
G81S: 39.9%
L156N: -0.205%
T120Q: -4.7%
E130G: 33.5%
S26R: -0.312%
Y53P: -7.16%

Block 2 — target: CCND2, cyclin fold, Cln2 fusion (human); method: yeast growth competition, sequencing; sample: yeast; setting: weak parent motif; reference: not given; reading: higher = stronger binding; measurement: normalised enrichment score
Starting sequence: SLBP docking peptide (human); ARYKRKLLINDFG
ARYERKLLINDFG [K4E]: 0.395
ERYKRKLLINDFG [A1E]: -0.322
ARYKRKLLIYDFG [N10Y]: 0.24
APYKRKLLINDFG [R2P]: 0.318
ARYKRKLAINDFG [L8A]: 0.309
ARYKRKLLINDFP [G13P]: 0.615
ARYKRKLQINDFG [L8Q]: 0.201
ARYKRKLLYNDFG [I9Y]: 0.0139
ARYKRKNLINDFG [L7N]: 0.505
IRYKRKLLINDFG [A1I]: -0.215
ARYKRKLLIWDFG [N10W]: 0.273
ARYARKLLINDFG [K4A]: 0.245
ARYKRKLLINDVG [F12V]: 0.269
ARMKRKLLINDFG [Y3M]: 0.695
AMYKRKLLINDFG [R2M]: 0.406
ARYKRKELINDFG [L7E]: -0.283
ARDKRKLLINDFG [Y3D]: 0.172
GRYKRKLLINDFG [A1G]: 0.559
ARYKRKLLINDFQ [G13Q]: -0.0521
ARYKRKLLIEDFG [N10E]: 0.387
ARYKRKLLINQFG [D11Q]: 0.434
ARYKRKCLINDFG [L7C]: 0.221
ARYKLKLLINDFG [R5L]: 0.258
ARYKRKLLINDQG [F12Q]: -0.185
ARYKMKLLINDFG [R5M]: 0.322

Block 3 — method: protein-binding microarray; form: double-stranded DNA, one strand shown; sample: in vitro; tested at: 250 nM; setting: 60-bp whole probe; together with: salmon DNA 0.4 mg/ml; reference: random background probes; reading: higher = stronger binding; measurement: log fluorescence; shared flanks, not repeated: GCCTAGCAC … GTCTTGATTCGCTTGACGCTGCTG
Target: Interferon regulatory factor 7, full length, phosphomimetic (IRF7, Homo sapiens, UniProt Q92985, residues 1-503, S101K/S471D/S472D/S475D/S476D/S477D/S483D/S484D/S487D)
Sequence of UniProt Q92985 (whole entry, unmodified, looked up): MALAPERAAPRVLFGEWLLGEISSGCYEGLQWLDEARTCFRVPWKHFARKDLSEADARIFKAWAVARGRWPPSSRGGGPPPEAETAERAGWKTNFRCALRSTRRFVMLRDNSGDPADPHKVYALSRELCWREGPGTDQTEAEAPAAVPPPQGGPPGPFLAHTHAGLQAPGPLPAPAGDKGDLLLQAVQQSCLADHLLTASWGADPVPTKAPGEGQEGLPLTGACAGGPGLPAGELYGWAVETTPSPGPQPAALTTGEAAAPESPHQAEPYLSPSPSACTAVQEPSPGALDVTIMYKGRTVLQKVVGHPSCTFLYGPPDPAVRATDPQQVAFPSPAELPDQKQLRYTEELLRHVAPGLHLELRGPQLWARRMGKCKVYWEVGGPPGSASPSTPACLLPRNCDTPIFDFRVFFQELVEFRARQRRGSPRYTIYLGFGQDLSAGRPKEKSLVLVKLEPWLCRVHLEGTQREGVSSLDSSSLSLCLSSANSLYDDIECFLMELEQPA
TCACAGCTATTTTTAGGACTGTGCTAG: -0.433 z-score
TTAGGTTTCCTTTTCATTTAGTGCTAG: 5.89 z-score
TTAGGTTTCGGGACTAGGTTAGTGCTA: 3.83 z-score
TCACTACTGCATTTTTTACTGTGCTAG: -0.303 z-score
ATTTTTTTTAGTGGATGAAAGTGCTAG: 0.49 z-score
ATGGGTATGGCCTATTTATATGTGCTA: -0.547 z-score
TTAGGTTTCGGGTTTCGGTTGGTGCTA: 12.4 z-score
ATCTCTTTCCTTACTTCCCAGTGCTAG: 2.36 z-score
TTAGGTCTGCTTCTCCTTTAGTGCTAG: 0.44 z-score
TTAGGTCTCGGATTCGGTTAGTGCTAG: 5.21 z-score
TTAGGACTTGGACTGGGTTAGTGCTAG: 0.196 z-score
TTAGGACTGCTTATCCGTTAGTGCTAG: 0.0645 z-score
TCAGATATAAATGTAACACTGTGCTAG: 0.45 z-score
TTAGATTCCGGTTTCGATTAGTGCTAG: 10.8 z-score
TTACGACTGGGACTGGGTTAGTGCTAG: -0.297 z-score
TCATGTTTGATAATTTTACTGTGCTAG: 0.112 z-score
TCATTTCAGTTTCTCTTACTGTGCTAG: 2.78 z-score
CACTATTTAAGAACTATGCACGTGCTA: 0.542 z-score
GACGGTACCGGTCTCGGGACGTGCTAG: 0.304 z-score

Block 4 — method: RNA Bind-n-Seq; form: RNA; sample: in vitro; tested at: 365 nM; reference: no-protein control; reading: higher = stronger binding; measurement: RBNS enrichment (R)
Target: RNA binding protein fox-1 homolog 2, RRM domain, GST-SBP tag (RBFOX2, Homo sapiens, UniProt O43251-10, residues 100-194)
Setting: natural RNA segment, single round, ends assumed
Shared flanks, not repeated: GGGAGUUCUACAGUCCGACGAUC … UGGAAUUCUCGGGUGCCAA
Residues (chain): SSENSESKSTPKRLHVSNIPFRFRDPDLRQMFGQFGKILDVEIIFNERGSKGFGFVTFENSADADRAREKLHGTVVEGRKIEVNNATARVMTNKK
CCCCCUUUCAAGGAAAGUGAACCUUUAAAGUAAAGGCCUCAUCUCCUUUAUUGCAGUUCAAAUCCUCACCAUCCACAGCAAGAUGAAUUUUAUCAGCCAUGUUUGGUUGU: 0.257
UCCUCCAGGACCUGGGAAGCAAAGGCACAGGCCCACGGUGGCCAGCCAUUGUGGUGCCGCCCCAGCUUCUGGAUACAGCCUUUUGGGUAAACACUGGGAACUCCAGAAGU: 0.24
AAUUAAUAAAAUCCCAAUGAAGCAGAGUUAUAGGGAUAGAUUUAUAGCUGGCAGAGUGGUAUCAAAGGAGAAAAACAGUGAAAAAGCCAAUUUCACUGGUUCGUUCAAUC: 0.677
UGCUCUGGCUCACGAGUAUUGGAGGACCUGAGCACCUCAGGCCGUGGGUCUGUGUGGGGUGUGUGGGUGUGGAUGUCUGCCUCGCCACAGGUGCCACAGAGGGGCAGGCG: 0.836
GUUUGUUGAGAGGAUUUCCUGAGACUGGUUUGGGUCUCCCUGCAUGACAGUCCCCCAGAAACUUGGUGUGUCCUGGGCUGGACUGACACCCAGAAAGCUUACCUGCGAGC: 28.7
UCCCAUAUUAAAGGAUCAUCAUCAUGGUUCUGCAGACACUCCGUGGCUCUGGGCGGUUCGUGCCCUUGCUAGCCACUACCCUUCAAUUCACCUGUGAUGCUAGCAUUAAU: 0.507
UAGGGGUGGAUAGAGCUGGCUUUCCUUCUGGGCUGUCUCCAUCUGACCCUACCCCUUCCAUGUCCCACCCCACUCCCACCAAAAAGUACAAAAUCAGGAUGUUUUUCACU: 0.334
GCUUAUCAUCCAAUCCCCUUUAACUGGGAUAAGAAACCAAAGGAGGAAAUAUUCUCUAUGGUAAUCCUUGCCAGAGGGUCUCCAAAGGAAGCUAACCGCUGGCCCCGAAU: 0.338

Repeated from above (block 4):
CCCCCUUUCAAGGAAAGUGAACCUUUAAAGUAAAGGCCUCAUCUCCUUUAUUGCAGUUCAAAUCCUCACCAUCCACAGCAAGAUGAAUUUUAUCAGCCAUGUUUGGUUGU: 0.257
UCCUCCAGGACCUGGGAAGCAAAGGCACAGGCCCACGGUGGCCAGCCAUUGUGGUGCCGCCCCAGCUUCUGGAUACAGCCUUUUGGGUAAACACUGGGAACUCCAGAAGU: 0.24
AAUUAAUAAAAUCCCAAUGAAGCAGAGUUAUAGGGAUAGAUUUAUAGCUGGCAGAGUGGUAUCAAAGGAGAAAAACAGUGAAAAAGCCAAUUUCACUGGUUCGUUCAAUC: 0.677
UGCUCUGGCUCACGAGUAUUGGAGGACCUGAGCACCUCAGGCCGUGGGUCUGUGUGGGGUGUGUGGGUGUGGAUGUCUGCCUCGCCACAGGUGCCACAGAGGGGCAGGCG: 0.836
GUUUGUUGAGAGGAUUUCCUGAGACUGGUUUGGGUCUCCCUGCAUGACAGUCCCCCAGAAACUUGGUGUGUCCUGGGCUGGACUGACACCCAGAAAGCUUACCUGCGAGC: 28.7
UCCCAUAUUAAAGGAUCAUCAUCAUGGUUCUGCAGACACUCCGUGGCUCUGGGCGGUUCGUGCCCUUGCUAGCCACUACCCUUCAAUUCACCUGUGAUGCUAGCAUUAAU: 0.507
UAGGGGUGGAUAGAGCUGGCUUUCCUUCUGGGCUGUCUCCAUCUGACCCUACCCCUUCCAUGUCCCACCCCACUCCCACCAAAAAGUACAAAAUCAGGAUGUUUUUCACU: 0.334
GCUUAUCAUCCAAUCCCCUUUAACUGGGAUAAGAAACCAAAGGAGGAAAUAUUCUCUAUGGUAAUCCUUGCCAGAGGGUCUCCAAAGGAAGCUAACCGCUGGCCCCGAAU: 0.338
